Published values collected from several papers.
In brackets after ≈: the same amount, converted by molar mass.

| SMILES | system | conditions | quantity | result |
| --- | --- | --- | --- | --- |
| NC1CCN(C(=O)Oc2cccc([C@H]3CCC[C@@]4(C3)OOC3(O4)C4CC5CC(C4)CC3C5)c2)C1 (stereo partly drawn) | PBS | pH 7.4 | kinetic solubility | 24.6 µM (≈ 11.5 µg/mL) |
| CC[C@H](C)[C@H](NC(=O)[C@H](C)NC(=O)CNC(=O)[C@H](Cc1ccccc1)NC(=O)[C@H](CC(N)=O)NC(=O)[C@H](CC(N)=O)NC(=O)[C@H](CO)NC(=O)[C@H](CO)NC(=O)[C@H](Cc1c[nH]cn1)NC(=O)[C@@H](NC(=O)[C@H](CC(C)C)NC(=O)[C@H](Cc1ccccc1)NC(=O)[C@H](CC(N)=O)NC(=O)[C@H](C)NC(=O)[C@H](CC(C)C)NC(=O)[C@H](CCCNC(=N)N)NC(=O)[C@H](CCC(N)=O)NC(=O)[C@@H](NC(=O)[C@H](C)NC(=O)[C@@H]1CSSC[C@H](NC(=O)[C@@H](N)CCCCN)C(=O)N[C@@H](CC(N)=O)C(=O)N[C@@H]([C@@H](C)O)C(=O)N[C@@H](C)C(=O)N[C@@H]([C@@H](C)O[C@H]2O[C@H](CO)[C@H](O)[C@H](O)[C@H]2NC(C)=O)C(=O)N1)[C@@H](C)O)C(C)C)C(=O)N[C@@H](CC(C)C)C(=O)N[C@@H](CO)C(=O)N[C@@H](CO)C(=O)N[C@H](C(=O)N[C@@H](CC(N)=O)C(=O)N[C@H](C(=O)NCC(=O)N[C@@H](CO)C(=O)N[C@@H](CC(N)=O)C(=O)N[C@H](C(=O)N[C@@H](Cc1ccc(O)cc1)C(N)=O)[C@@H](C)O)C(C)C)[C@@H](C)O | PBS | 1 h, pH 7.4 | thermodynamic solubility | 50 µg/mL (≈ 12.2 µM) |
| CC1COC2=C1C(=O)C(=O)c1c2ccc2c1C(OC(=O)CNC(=O)C(N)CO)CCC2(C)C (mixture of isomers) | water | 25 °C | thermodynamic solubility | 491 µg/mL |
| CCCCC(CC)COC(=O)CC(C(=O)OCC(CC)CCCC)S(=O)(=O)O.CCCSc1ccc2[nH]c(NC(=O)OC)nc2c1 (stereo not drawn) | water | – | solubility | < 1 µg/mL |
| Nc1cnc(Cl)cc1NC(=O)Nc1cc(C(F)F)ns1 | PBS | 24 h, pH 7.4 | kinetic solubility | 177 µM (≈ 56.6 µg/mL) |
| CC[C@H](C)[C@H](NC(=O)[C@H](C)NC(=O)CNC(=O)[C@H](Cc1ccccc1)NC(=O)[C@H](CC(N)=O)NC(=O)[C@H](CC(N)=O)NC(=O)[C@H](CO)NC(=O)[C@H](CO)NC(=O)[C@H](Cc1c[nH]cn1)NC(=O)[C@@H](NC(=O)[C@H](CC(C)C)NC(=O)[C@H](Cc1ccccc1)NC(=O)[C@H](CC(N)=O)NC(=O)[C@H](C)NC(=O)[C@H](CC(C)C)NC(=O)[C@H](CCCNC(=N)N)NC(=O)[C@H](CCC(N)=O)NC(=O)[C@@H](NC(=O)[C@H](C)NC(=O)[C@@H]1CSSC[C@H](NC(=O)[C@@H](N)CCCCN)C(=O)N[C@@H](CC(N)=O)C(=O)N[C@@H]([C@@H](C)O)C(=O)N[C@@H](C)C(=O)N[C@@H]([C@@H](C)O)C(=O)N1)[C@@H](C)O)C(C)C)C(=O)N[C@@H](CC(C)C)C(=O)N[C@@H](CO)C(=O)N[C@@H](CO)C(=O)N[C@H](C(=O)N[C@@H](CC(N)=O)C(=O)N[C@H](C(=O)NCC(=O)N[C@@H](CO)C(=O)N[C@@H](CC(N)=O)C(=O)N[C@H](C(=O)N[C@@H](Cc1ccc(O)cc1)C(N)=O)[C@@H](C)O)C(C)C)[C@@H](C)O[C@H]1O[C@H](CO[C@]2(C(=O)O)C[C@H](O)[C@@H](NC(C)=O)[C@H]([C@H](O)[C@H](O)CO)O2)[C@H](O)[C@H](O[C@@H]2O[C@H](CO)[C@H](O)[C@H](O)[C@H]2O)[C@H]1NC(C)=O | PBS | 1 h, pH 7.4 | thermodynamic solubility | 3660 µg/mL (≈ 803 µM) |
| Cn1c(C(C)(C)C)c/c(=N\C(=O)c2cc(C(F)(F)F)ccc2OCC(C)(C)O)n1CC1CCC1 | water | – | solubility | 250 µg/mL (≈ 519 µM) |
| CC1COC2=C1C(=O)C(=O)c1c2ccc2c1C(OC(=O)CNC(=O)CN)CCC2(C)C (mixture of isomers) | PBS | pH 7.4, 25 °C | thermodynamic solubility | 178 µg/mL |
| CC[C@H](C)[C@H](NC(=O)[C@H](C)NC(=O)CNC(=O)[C@H](Cc1ccccc1)NC(=O)[C@H](CC(N)=O)NC(=O)[C@H](CC(N)=O)NC(=O)[C@H](CO)NC(=O)[C@H](CO)NC(=O)[C@H](Cc1c[nH]cn1)NC(=O)[C@@H](NC(=O)[C@H](CC(C)C)NC(=O)[C@H](Cc1ccccc1)NC(=O)[C@H](CC(N)=O)NC(=O)[C@H](C)NC(=O)[C@H](CC(C)C)NC(=O)[C@H](CCCNC(=N)N)NC(=O)[C@H](CCC(N)=O)NC(=O)[C@@H](NC(=O)[C@H](C)NC(=O)[C@@H]1CSSC[C@H](NC(=O)[C@@H](N)CCCCN)C(=O)N[C@@H](CC(N)=O)C(=O)N[C@@H]([C@@H](C)O)C(=O)N[C@@H](C)C(=O)N[C@@H]([C@@H](C)O)C(=O)N1)[C@@H](C)O[C@H]1O[C@H](CO)[C@H](O)[C@H](O)[C@H]1NC(C)=O)C(C)C)C(=O)N[C@@H](CC(C)C)C(=O)N[C@@H](CO)C(=O)N[C@@H](CO)C(=O)N[C@H](C(=O)N[C@@H](CC(N)=O)C(=O)N[C@H](C(=O)NCC(=O)N[C@@H](CO)C(=O)N[C@@H](CC(N)=O)C(=O)N[C@H](C(=O)N[C@@H](Cc1ccc(O)cc1)C(N)=O)[C@@H](C)O)C(C)C)[C@@H](C)O | PBS | 1 h, pH 7.4 | thermodynamic solubility | 54 µg/mL (≈ 13.1 µM) |

Some of these lines once more:
| SMILES | system | conditions | quantity | result |
| --- | --- | --- | --- | --- |
| Nc1cnc(Cl)cc1NC(=O)Nc1cc(C(F)F)ns1 | PBS | 24 h, pH 7.4 | kinetic solubility | 177 µM (≈ 56.6 µg/mL) |
